{"data": "Assay results of several laboratories", "note": "Every numbered part comes from another study and shows a few of its results, in no order. Several values in a cell are separate wells, animals, samples, runs or records.", "chain of UniProt O15146 (whole entry, looked up)": "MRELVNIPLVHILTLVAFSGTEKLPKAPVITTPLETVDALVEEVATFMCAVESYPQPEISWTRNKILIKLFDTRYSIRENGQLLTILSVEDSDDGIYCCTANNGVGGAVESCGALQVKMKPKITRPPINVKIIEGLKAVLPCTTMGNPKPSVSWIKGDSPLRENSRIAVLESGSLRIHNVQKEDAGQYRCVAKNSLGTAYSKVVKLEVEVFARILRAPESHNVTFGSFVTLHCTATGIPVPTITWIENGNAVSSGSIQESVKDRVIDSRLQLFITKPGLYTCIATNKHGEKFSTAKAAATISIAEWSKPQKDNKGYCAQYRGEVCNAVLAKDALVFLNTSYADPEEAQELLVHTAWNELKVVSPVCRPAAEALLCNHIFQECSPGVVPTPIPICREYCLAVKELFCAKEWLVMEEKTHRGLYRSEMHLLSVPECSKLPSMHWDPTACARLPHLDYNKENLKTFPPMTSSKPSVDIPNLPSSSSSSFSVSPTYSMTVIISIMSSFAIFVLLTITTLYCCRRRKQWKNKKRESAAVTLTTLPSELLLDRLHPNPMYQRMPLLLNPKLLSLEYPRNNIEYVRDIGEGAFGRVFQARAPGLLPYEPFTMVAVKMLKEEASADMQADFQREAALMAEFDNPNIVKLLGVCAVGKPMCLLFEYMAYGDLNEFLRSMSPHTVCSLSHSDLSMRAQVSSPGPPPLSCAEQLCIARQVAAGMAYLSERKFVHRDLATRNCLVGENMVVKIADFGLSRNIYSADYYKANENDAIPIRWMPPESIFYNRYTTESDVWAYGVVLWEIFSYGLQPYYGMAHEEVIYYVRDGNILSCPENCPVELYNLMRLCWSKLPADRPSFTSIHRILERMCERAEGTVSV", "chain of UniProt P51812 (whole entry, looked up)": "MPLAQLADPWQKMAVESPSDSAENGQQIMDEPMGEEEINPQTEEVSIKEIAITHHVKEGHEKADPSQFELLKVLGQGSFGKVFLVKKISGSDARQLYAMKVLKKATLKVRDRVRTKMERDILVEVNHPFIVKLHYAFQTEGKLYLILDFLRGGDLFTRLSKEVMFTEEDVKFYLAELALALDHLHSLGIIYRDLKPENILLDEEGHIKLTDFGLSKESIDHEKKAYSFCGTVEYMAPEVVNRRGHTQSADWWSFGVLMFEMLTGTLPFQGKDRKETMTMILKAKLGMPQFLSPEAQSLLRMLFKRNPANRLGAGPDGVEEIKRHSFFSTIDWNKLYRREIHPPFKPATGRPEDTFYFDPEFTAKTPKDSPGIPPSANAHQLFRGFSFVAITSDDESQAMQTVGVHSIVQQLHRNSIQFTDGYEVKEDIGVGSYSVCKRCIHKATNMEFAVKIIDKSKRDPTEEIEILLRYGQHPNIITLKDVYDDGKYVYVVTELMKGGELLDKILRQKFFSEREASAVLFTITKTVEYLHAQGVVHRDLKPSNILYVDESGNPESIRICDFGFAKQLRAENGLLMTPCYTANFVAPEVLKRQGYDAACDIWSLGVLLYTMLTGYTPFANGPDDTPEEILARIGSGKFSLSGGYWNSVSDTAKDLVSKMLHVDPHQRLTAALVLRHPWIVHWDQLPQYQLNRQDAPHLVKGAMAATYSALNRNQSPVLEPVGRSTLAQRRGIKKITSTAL", "chain of UniProt Q9NYL2 (whole entry, looked up)": "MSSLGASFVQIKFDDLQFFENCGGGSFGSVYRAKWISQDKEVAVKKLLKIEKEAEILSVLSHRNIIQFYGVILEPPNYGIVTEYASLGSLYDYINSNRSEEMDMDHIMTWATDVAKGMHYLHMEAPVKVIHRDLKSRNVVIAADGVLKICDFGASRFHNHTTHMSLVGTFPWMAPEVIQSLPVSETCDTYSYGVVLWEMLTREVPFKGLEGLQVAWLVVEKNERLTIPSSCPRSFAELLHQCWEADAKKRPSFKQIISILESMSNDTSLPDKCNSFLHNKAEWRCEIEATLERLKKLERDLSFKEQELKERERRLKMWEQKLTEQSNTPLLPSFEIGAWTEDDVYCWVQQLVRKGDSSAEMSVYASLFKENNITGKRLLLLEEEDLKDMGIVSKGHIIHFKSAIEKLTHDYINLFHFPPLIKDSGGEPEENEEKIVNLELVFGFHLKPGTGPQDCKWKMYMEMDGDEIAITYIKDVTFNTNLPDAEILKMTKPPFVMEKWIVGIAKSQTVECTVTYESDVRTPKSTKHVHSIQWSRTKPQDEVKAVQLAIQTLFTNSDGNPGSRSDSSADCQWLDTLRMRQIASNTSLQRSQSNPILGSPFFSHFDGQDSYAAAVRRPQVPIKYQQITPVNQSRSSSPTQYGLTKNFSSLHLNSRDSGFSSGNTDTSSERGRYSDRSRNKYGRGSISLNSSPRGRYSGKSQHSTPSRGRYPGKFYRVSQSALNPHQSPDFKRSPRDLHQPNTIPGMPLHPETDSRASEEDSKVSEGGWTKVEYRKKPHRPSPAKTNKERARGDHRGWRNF"}
{"data": "Sample 1", "SMILES": "Cc1nc(N2CC[C@@H](O)C2)ncc1-c1cc(C(F)(F)F)cc2[nH]ncc12", "technique": "competition with immobilised ligand", "concentration": "1 µM"}
{"target": "Phosphatidylinositol 3-kinase C2 domain-containing subunit gamma (PIK3C2G, Homo sapiens, UniProt O75747)", "effect on": "binding", "remaining binding": "90%"}
{"target": "Serine/threonine-protein kinase WNK2 (WNK2, Homo sapiens, UniProt Q9Y3S1)", "effect on": "binding", "remaining binding": "41%"}
{"target": "Serine/threonine-protein kinase WNK3 (WNK3, Homo sapiens, UniProt Q9BYP7)", "effect on": "binding", "remaining binding": "67%"}
{"target": "Epidermal growth factor receptor (EGFR, Homo sapiens, UniProt P00533)", "effect on": "cell-free assay", "remaining binding": "71%"}
{"target": "Tyrosine-protein kinase ABL1, non-phosphorylated (ABL1, Homo sapiens, UniProt P00519, F317L)", "effect on": "binding", "remaining binding": "100%"}
{"target": "Ephrin type-A receptor 6 (EPHA6, Homo sapiens, UniProt Q9UF33)", "effect on": "cell-free assay", "remaining binding": "100%"}
{"target": "Ephrin type-B receptor 4 (EPHB4, Homo sapiens, UniProt P54760)", "effect on": "cell-free assay", "remaining binding": "100%"}
{"target": "Cyclin-dependent kinase 8 (CDK8, Homo sapiens, UniProt P49336)", "effect on": "binding", "remaining binding": "88%"}
{"target": "Serine/threonine-protein kinase TAO2 (TAOK2, Homo sapiens, UniProt Q9UL54)", "effect on": "binding", "remaining binding": "100%"}
{"target": "MAP/microtubule affinity-regulating kinase 3 (MARK3, Homo sapiens, UniProt P27448)", "effect on": "binding", "remaining binding": "100%"}
{"target": "Mitogen-activated protein kinase 8 (MAPK8, Homo sapiens, UniProt P45983)", "effect on": "binding", "remaining binding": "100%"}
{"target": "Tyrosine-protein kinase ABL1, phosphorylated (ABL1, Homo sapiens, UniProt P00519, E255K)", "effect on": "binding", "remaining binding": "77%"}
{"target": "Tyrosine-protein kinase receptor Tie-1 (TIE1, Homo sapiens, UniProt P35590)", "effect on": "cell-free assay", "remaining binding": "91%"}
{"data": "Sample 2", "Compound": "Cc1nc(Nc2ncc(C(=O)Nc3c(C)cccc3Cl)s2)cc(N2CCN(CCO)CC2)n1", "mode": "inhibitor"}
{"target": "Serine/threonine-protein kinase NLK (NLK, Homo sapiens, UniProt Q9UBE8)", "concentration": "10 µM", "inhibition": "96%"}
{"target": "5'-AMP-activated protein kinase catalytic subunit alpha-1 (PRKAA1, Homo sapiens, UniProt Q13131)", "concentration": "1 µM", "inhibition": "< 50%"}
{"target": "Muscle, skeletal receptor tyrosine-protein kinase (MUSK, Homo sapiens, UniProt O15146)", "concentration": "10 µM", "inhibition": "< 50%"}
{"target": "Serine/threonine-protein kinase DCLK1 (DCLK1, Homo sapiens, UniProt O15075)", "concentration": "1 µM", "inhibition": "< 50%"}
{"target": "Proto-oncogene tyrosine-protein kinase receptor Ret (RET, Homo sapiens, UniProt P07949, V804M)", "concentration": "10 µM", "inhibition": "< 50%"}
{"target": "Ribosomal protein S6 kinase alpha-3, N-terminal kinase domain (RPS6KA3, Homo sapiens, UniProt P51812)", "concentration": "1 µM", "inhibition": "< 50%"}
{"target": "Activin receptor type-1 (ACVR1, Homo sapiens, UniProt Q04771)", "concentration": "10 µM", "inhibition": "96%"}
{"target": "SRSF protein kinase 3 (SRPK3, Homo sapiens, UniProt Q9UPE1)", "concentration": "1 µM", "inhibition": "< 50%"}
{"target": "Mitogen-activated protein kinase kinase kinase 4 (MAP3K4, Homo sapiens, UniProt Q9Y6R4)", "concentration": "10 µM", "inhibition": "98%"}
{"data": "Sample 3", "target": "DNA polymerase theta, ATPase domain (POLQ, Homo sapiens, UniProt O75417)", "effect on": "enzyme activity", "mode": "inhibitor", "concentration": "77 µM", "reference": "untreated", "chain of UniProt O75417 (whole entry, unmodified, looked up)": "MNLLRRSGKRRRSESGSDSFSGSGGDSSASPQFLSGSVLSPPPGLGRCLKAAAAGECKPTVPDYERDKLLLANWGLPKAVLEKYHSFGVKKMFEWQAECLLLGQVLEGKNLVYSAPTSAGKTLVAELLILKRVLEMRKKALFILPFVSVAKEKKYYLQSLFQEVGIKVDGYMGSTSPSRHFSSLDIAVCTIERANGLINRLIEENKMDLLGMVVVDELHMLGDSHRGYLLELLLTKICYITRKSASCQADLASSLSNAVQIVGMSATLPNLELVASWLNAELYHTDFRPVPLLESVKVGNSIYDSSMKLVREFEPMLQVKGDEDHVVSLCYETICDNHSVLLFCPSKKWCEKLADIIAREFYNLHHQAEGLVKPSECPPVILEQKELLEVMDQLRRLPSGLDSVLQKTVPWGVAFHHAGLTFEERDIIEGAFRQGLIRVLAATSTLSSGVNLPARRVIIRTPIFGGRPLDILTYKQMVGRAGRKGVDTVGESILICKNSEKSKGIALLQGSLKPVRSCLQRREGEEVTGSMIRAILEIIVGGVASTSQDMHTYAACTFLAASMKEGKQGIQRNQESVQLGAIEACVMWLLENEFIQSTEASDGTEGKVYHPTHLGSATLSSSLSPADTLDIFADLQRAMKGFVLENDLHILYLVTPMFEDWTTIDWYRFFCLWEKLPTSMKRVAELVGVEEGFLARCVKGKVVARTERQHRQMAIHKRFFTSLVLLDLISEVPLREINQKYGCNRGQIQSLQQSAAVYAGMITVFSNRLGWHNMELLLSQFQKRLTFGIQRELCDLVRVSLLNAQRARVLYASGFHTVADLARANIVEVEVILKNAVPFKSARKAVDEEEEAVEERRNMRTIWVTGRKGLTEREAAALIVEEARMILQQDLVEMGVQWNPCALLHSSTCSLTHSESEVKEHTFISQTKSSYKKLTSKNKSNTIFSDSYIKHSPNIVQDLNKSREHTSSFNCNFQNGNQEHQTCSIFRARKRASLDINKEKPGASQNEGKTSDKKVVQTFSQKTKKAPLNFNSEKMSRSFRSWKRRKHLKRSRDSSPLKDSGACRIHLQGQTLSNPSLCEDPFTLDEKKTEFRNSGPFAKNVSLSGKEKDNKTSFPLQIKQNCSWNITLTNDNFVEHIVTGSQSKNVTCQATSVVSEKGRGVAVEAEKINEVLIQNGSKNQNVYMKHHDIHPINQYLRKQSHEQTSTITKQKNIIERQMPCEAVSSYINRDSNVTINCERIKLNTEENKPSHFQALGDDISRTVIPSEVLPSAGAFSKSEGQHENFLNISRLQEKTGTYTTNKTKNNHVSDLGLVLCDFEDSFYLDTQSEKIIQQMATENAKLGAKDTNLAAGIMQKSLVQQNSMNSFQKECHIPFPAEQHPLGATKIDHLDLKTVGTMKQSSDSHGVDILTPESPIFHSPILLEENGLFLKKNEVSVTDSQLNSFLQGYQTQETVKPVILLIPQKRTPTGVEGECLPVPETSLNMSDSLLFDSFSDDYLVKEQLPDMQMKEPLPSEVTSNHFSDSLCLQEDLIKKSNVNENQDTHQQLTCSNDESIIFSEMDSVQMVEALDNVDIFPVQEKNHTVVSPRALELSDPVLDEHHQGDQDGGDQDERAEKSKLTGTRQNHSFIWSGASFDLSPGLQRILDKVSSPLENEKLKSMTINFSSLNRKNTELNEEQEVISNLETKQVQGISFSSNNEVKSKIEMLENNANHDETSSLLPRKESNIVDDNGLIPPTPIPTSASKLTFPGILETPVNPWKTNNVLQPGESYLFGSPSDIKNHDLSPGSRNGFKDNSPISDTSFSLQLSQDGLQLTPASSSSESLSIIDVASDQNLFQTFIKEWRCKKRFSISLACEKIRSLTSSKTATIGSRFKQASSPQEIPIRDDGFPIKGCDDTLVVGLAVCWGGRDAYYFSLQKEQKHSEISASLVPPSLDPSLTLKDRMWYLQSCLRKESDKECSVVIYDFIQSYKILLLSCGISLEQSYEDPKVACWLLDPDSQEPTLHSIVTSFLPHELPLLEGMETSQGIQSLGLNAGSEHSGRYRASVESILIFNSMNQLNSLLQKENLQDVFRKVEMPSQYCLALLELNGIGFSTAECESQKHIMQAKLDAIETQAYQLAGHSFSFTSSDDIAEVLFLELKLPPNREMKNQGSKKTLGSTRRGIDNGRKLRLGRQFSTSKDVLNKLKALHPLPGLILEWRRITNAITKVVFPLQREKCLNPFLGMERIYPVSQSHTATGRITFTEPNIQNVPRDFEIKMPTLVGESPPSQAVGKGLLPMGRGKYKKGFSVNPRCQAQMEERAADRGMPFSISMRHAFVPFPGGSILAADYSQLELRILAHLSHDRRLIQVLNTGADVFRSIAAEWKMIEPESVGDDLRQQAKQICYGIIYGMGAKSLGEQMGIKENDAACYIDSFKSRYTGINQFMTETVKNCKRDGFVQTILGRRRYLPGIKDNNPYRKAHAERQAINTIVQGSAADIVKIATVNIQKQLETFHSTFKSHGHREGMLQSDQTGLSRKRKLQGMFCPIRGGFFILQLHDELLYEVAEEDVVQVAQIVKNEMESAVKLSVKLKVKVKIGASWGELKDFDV"}
{"Structure (SMILES)": "O=C(O)C(O)Cc1ccc(O)c(O)c1 (stereo not drawn)", "remaining activity": "73.8%"}
{"Structure (SMILES)": "O=C(O)CP(=O)(O)O", "remaining activity": "94.3%"}
{"Structure (SMILES)": "O=C(COc1ccc(Cl)cc1)N1CCN(Cc2ccc3c(c2)OCO3)CC1", "remaining activity": "105%"}
{"Structure (SMILES)": "O=c1c(O)c(-c2cc(O)c(O)c(O)c2)oc2cc(O)cc(O)c12", "remaining activity": "97.5% and 106%"}
{"Structure (SMILES)": "O=c1[nH]c(=O)n([C@H]2C[C@H](O)[C@@H](CO)O2)cc1C(F)(F)F", "remaining activity": "90.6% and 102%"}
{"Structure (SMILES)": "CCNC(=O)CCC/C=C\\C[C@@H]1[C@@H](/C=C/[C@@H](O)CCc2ccccc2)[C@H](O)C[C@@H]1O", "remaining activity": "95.5%"}
{"Structure (SMILES)": "CCOC(=O)NNc1nncc2ccccc12", "remaining activity": "86.2%"}
{"Structure (SMILES)": "N[C@@H]1C=CC=C(C(=O)O)C1", "remaining activity": "99.3%"}
{"Structure (SMILES)": "C[C@]12C=CC(=O)C=C1CC[C@@H]1[C@@H]2C(=O)C[C@@]2(C)[C@H]1CC[C@]2(O)C(=O)CO", "remaining activity": "103% and 95.2%"}
{"Structure (SMILES)": "CC[C@H]1OC(=O)[C@H](C)[C@@H](O[C@H]2C[C@@](C)(OC)[C@@H](O)[C@H](C)O2)[C@H](C)[C@@H](O[C@@H]2O[C@H](C)C[C@H](N(C)C)[C@H]2O)[C@](C)(O)C[C@@H](C)C(=O)[C@H](C)[C@@H](O)[C@]1(C)O", "remaining activity": "104% and 91.3%"}
{"Structure (SMILES)": "CC1=C(/C=C/C(C)=C/C=C/C(C)=C/C=C/C=C(C)/C=C/C=C(C)/C=C/C2=C(C)CCCC2(C)C)C(C)(C)CCC1", "remaining activity": "99.1%"}
{"data": "Sample 4", "SMILES": "CC(C)(C)n1nc(Cc2cccc3ccccc23)c2c(N)ncnc21", "effect on": "enzyme activity", "mode": "inhibitor", "concentration": "0.5 µM", "reference": "control"}
{"target": "Tyrosine-protein kinase receptor TYRO3 (TYRO3, Homo sapiens, UniProt Q06418)", "remaining activity [%]": 97.7}
{"target": "Serine/threonine-protein kinase PAK 6 (PAK6, Homo sapiens, UniProt Q9NQU5)", "remaining activity [%]": 100}
{"target": "Serine/threonine-protein kinase SIK2 (SIK2, Homo sapiens, UniProt Q9H0K1)", "remaining activity [%]": 93}
{"target": "Tyrosine-protein kinase Tec (TEC, Homo sapiens, UniProt P42680)", "remaining activity [%]": 111}
{"target": "Casein kinase I isoform epsilon (CSNK1E, Homo sapiens, UniProt P49674)", "remaining activity [%]": 1.53}
{"target": "Cyclin-dependent kinase 2, with cyclin E (CDK2, Homo sapiens, UniProt P24941)", "remaining activity [%]": 89.6}
{"target": "Serine/threonine-protein kinase Sgk2 (SGK2, Homo sapiens, UniProt Q9HBY8)", "remaining activity [%]": 98.7}
{"target": "Casein kinase I isoform delta (CSNK1D, Homo sapiens, UniProt P48730)", "remaining activity [%]": 53.7}
{"target": "Serine/threonine-protein kinase PAK 1 (PAK1, Homo sapiens, UniProt Q13153)", "remaining activity [%]": 86}
{"target": "Dual specificity protein kinase CLK2 (CLK2, Homo sapiens, UniProt P49760)", "remaining activity [%]": 90.2}
{"target": "Vascular endothelial growth factor receptor 1 (FLT1, Homo sapiens, UniProt P17948)", "remaining activity [%]": 85.3}
{"target": "Ephrin type-A receptor 6 (EPHA6, Homo sapiens, UniProt Q9UF33)", "remaining activity [%]": 9.38}
{"target": "Insulin-like growth factor 1 receptor (IGF1R, Homo sapiens, UniProt P08069)", "remaining activity [%]": 98.5}
{"target": "Mitogen-activated protein kinase kinase kinase 20 (MAP3K20, Homo sapiens, UniProt Q9NYL2)", "remaining activity [%]": 90.9}
{"target": "Calcium/calmodulin-dependent protein kinase type 1 (CAMK1, Homo sapiens, UniProt Q14012)", "remaining activity [%]": 92.6}
{"target": "Ribosomal protein S6 kinase alpha-3 (RPS6KA3, Homo sapiens, UniProt P51812)", "remaining activity [%]": 95.3}
{"target": "Protein kinase C zeta type (PRKCZ, Homo sapiens, UniProt Q05513)", "remaining activity [%]": 90.3}
{"target": "Protein kinase C theta type (PRKCQ, Homo sapiens, UniProt Q04759)", "remaining activity [%]": 103}
{"target": "SRSF protein kinase 1 (SRPK1, Homo sapiens, UniProt Q96SB4)", "remaining activity [%]": 104}
{"target": "Ephrin type-A receptor 2 (EPHA2, Homo sapiens, UniProt P29317)", "remaining activity [%]": 42}
{"target": "Muscle, skeletal receptor tyrosine-protein kinase (MUSK, Homo sapiens, UniProt O15146)", "remaining activity [%]": 87.6}
{"target": "Tyrosine-protein kinase JAK1 (JAK1, Homo sapiens, UniProt P23458)", "remaining activity [%]": 90.4}
{"target": "Calcium/calmodulin-dependent protein kinase kinase 1 (CAMKK1, Homo sapiens, UniProt Q8N5S9)", "remaining activity [%]": 84.6}
{"target": "Dual specificity protein kinase CLK1 (CLK1, Homo sapiens, UniProt P49759)", "remaining activity [%]": 97.7}
{"note": "Excerpt of the above (sample 4):"}
{"target": "Mitogen-activated protein kinase kinase kinase 20 (MAP3K20, Homo sapiens, UniProt Q9NYL2)", "remaining activity [%]": 90.9}
{"target": "Calcium/calmodulin-dependent protein kinase kinase 1 (CAMKK1, Homo sapiens, UniProt Q8N5S9)", "remaining activity [%]": 84.6}
{"target": "Tyrosine-protein kinase JAK1 (JAK1, Homo sapiens, UniProt P23458)", "remaining activity [%]": 90.4}
{"target": "Serine/threonine-protein kinase PAK 6 (PAK6, Homo sapiens, UniProt Q9NQU5)", "remaining activity [%]": 100}
{"target": "Serine/threonine-protein kinase SIK2 (SIK2, Homo sapiens, UniProt Q9H0K1)", "remaining activity [%]": 93}
{"target": "Dual specificity protein kinase CLK2 (CLK2, Homo sapiens, UniProt P49760)", "remaining activity [%]": 90.2}
{"target": "Muscle, skeletal receptor tyrosine-protein kinase (MUSK, Homo sapiens, UniProt O15146)", "remaining activity [%]": 87.6}
{"target": "Casein kinase I isoform delta (CSNK1D, Homo sapiens, UniProt P48730)", "remaining activity [%]": 53.7}
{"target": "Cyclin-dependent kinase 2, with cyclin E (CDK2, Homo sapiens, UniProt P24941)", "remaining activity [%]": 89.6}
